# Measured values gathered from unrelated publications.
# Parts stem from different laboratories: compare values within a part only.

# Study 1 — technique: RNA Bind-n-Seq; molecule type: RNA; sample: in vitro; concentration: not given; baseline: input RNA pool; reading: higher = stronger binding
# Target: RING finger protein unkempt homolog, zinc fingers 1-6, GST-SBP tag (UNK, Homo sapiens, UniProt Q9C0B0, residues 30-357)
# Chain of UniProt Q9C0B0 (30-357, looked up): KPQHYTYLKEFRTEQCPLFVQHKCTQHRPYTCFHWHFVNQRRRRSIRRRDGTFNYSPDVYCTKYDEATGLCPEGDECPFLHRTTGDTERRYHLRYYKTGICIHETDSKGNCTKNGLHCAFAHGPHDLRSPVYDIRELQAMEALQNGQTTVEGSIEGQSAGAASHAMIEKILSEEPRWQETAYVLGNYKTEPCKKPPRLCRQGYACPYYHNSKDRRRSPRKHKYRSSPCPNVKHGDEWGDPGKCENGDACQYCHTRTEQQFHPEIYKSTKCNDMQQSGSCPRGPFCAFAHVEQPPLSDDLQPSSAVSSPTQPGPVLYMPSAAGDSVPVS
# Notes: RNA with constant flanks, human-mouse chimeric sites, ends assumed
# All sequences stand within: GGGAGUUCUACAGUCCGACGAUC … CAACAGAGGAUUGAGCAUCA
Sequence,bound/input enrichment [ratio]
GUACUGCAGCAGCAGGGAAAACUGCAGGAAGCUCUGAUGCAUUAUAAGGAGGCUAUUCGAAUCAGUCCUACCUUUGCUGAUGCUUAUUCUAAUAUGGGAAACACUCUAAAGGAGAUGCAG,0.143
AUCAAAUACUUUGGGGAUAUUAUUAGCGUGGGACAGAGACUGUUGCAAGGAGCUCGGAUCUUAGGGAUUCCUGUUAUCAUAACGGAACAAUACCCCAAAGGACUUGGCAGCACCGUUCAA,0.26
CUGGCACUGUAUCAGAUAUAUUAAUUUUUAAAUGUAGAUGUAAUUUUAAAAAUGAAUGGCUACUUUACACGUUUAACUAGGGUUUUACUAUAUAUGUGUACAUAUGUAUAUAUAUAUAUA,2.15
GAUCAUGAACCACCAUCAGAAAUGAAGAUGAGAUUACCCAAGACGAGCAAAACAGCUAGCACUAGAAAAAGUAAACUUAACCUUGCAGAGUUCCUUAAUGAAGAUACAAGUUAAGAGAGC,1.62
AACUUCGUGCAUCGGUUUCCCUUUGUAGCUGUUUCAAUUGGCUUUGCUGUAAAUAAAGAGAUGGAGUUUGGAAUUGUGUACAGCUGUGUGGAAGAUAAGAUGUACACCGGCAGGAAAGGG,0.411
CCCCAAUUACCAUCUGUGGUCUGGAACUGCACUCUCUUUUUUAAAAAACAUGUAUACAUUUUAGGGCUGUAGAUUUAUUUUCCUGGUUUUGUUUUUCAUUGCUGACUUUUGAGCACAGAA,1.77
CUGGCCUGGCCCUCCCCAGGGGCCUCCUUUCGUAUAGUCACUGCUUCUGCUACGGAUACUUUCAGCUGCAACUCCCUACUGGGUGGGGCACCUAUCUCAGGCAGAAGGUUUUGGUACCCU,0.157

# Study 2 — technique: protein binding microarray; molecule type: double-stranded DNA, one strand shown; sample: in vitro; concentration: not given; baseline: not given; reading: higher = stronger binding
# Target: Histone acetyltransferase KAT6A, winged helix 1, GST fusion (KAT6A, Homo sapiens, UniProt Q92794, residues 1-85)
# Notes: 8-mer, flanks averaged, mean of 2 arrays, mostly near background
# Residues (chain): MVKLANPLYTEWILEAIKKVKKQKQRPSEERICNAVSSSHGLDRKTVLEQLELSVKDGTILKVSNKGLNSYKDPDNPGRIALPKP
Sequence,E-score
ACAAAAAA,-0.135
CCGAAAAA,-0.08
CCGCTTGC,0.32
GCGTATCA,0.107
CATATCTC,-0.201
CCCCTCCA,-0.0295
AGCGAAAC,0.0182
GATCCCAC,-0.202
CTTCAGGC,-0.109
GAGACCGA,0.0169
AACAGACT,-0.0776
AGAGATCA,-0.261
CAATAAGG,-0.226
ATCAGGAT,-0.176
TAGTGAAA,-0.216
CCGCCAGC,0.263
AATACGAA,-0.109

# Study 3 — technique: RNA Bind-n-Seq; molecule type: RNA; sample: in vitro; concentration: 200 nM; notes: whole 134-nt RNA, ends assumed; with: 150 mM LiCl; baseline: input library; reading: higher = stronger binding; each molecule: 7-deaza-guanosine replaces G
# Target: Ras GTPase-activating protein-binding protein 1, full length (G3BP1, Homo sapiens, UniProt Q13283)
# Chain of UniProt Q13283 (whole entry, looked up): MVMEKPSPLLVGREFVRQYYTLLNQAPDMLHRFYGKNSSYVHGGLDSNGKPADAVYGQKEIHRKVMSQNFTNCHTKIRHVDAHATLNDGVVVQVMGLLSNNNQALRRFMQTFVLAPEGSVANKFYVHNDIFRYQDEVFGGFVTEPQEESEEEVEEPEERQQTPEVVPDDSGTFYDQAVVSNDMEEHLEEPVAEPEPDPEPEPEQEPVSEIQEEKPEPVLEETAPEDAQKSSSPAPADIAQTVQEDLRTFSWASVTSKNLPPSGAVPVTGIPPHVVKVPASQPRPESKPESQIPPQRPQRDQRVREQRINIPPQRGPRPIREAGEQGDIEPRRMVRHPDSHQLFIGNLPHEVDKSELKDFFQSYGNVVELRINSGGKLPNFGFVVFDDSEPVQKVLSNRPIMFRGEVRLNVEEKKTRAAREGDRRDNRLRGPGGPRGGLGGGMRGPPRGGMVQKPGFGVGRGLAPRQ
# All sequences stand within: GGGAGUUCUACAGUCCGACGAUC … UGGAAUUCUCGGGUGUCAAGG
Sequence,log2 enrichment
UGGGAGGUGGAUUUUGUUUAUUUUUGUAGCUCAUUUCCAGGGGUGGGAAUUUUUUUUUAAUAUGUGUCAUGAAUAAAGUUGUUUUUGAAA,0.252
GCAGGAAGUAUAAACAAAUGGAAAUGCUUCGGAUAGUGGCAGGGGUGGGGGUUGCUAAGGAAAGGGUGGGAUGGGAGUGGGUAAAGAGUU,-0.0314
UCCUGUGCUACACAUCGUAUGUACCGAAUCGGGGAAAAAGGGGAAAAAGGGGUUUGGGGAAAGUAUUAUGUUACGCCGUUCGGAUCUGCA,-0.141
UAACUUUAGAGGAGGAUCUGAUGGAUAUGGCAGUGGACGUGAAUUUGGGGAUGGCUAUAAUGGGUAUGGAGGAGGACCUGGAGGUGGCAA,-0.697
UCCUGUGCUACACAUCGUAUGUACCGAAUCGGGGAAAAAAAGGGGAAAAAGGGGUGGGGAAAGUAUUAUGUUACGCCGUUCGGAUCUGCA,-0.31
UGGACAGGUUGCUGGACCCCGCCAACAGAGCCCACCUGGGCCUGGAGGAGCAGCUGAGAGAGCUGCUGGACAUGCUCGACCUCACCUGCG,-1.65
UGUGCUACACAUCGUAUGUACCGAAUCGGGGAAAAAAAGGGAAAAAAAGGGGAAAAAAAGGGGAAAGUAUUAUGUUACGCCGUUCGGAUC,0.644
CCUCAAGUCCUGUGCUACACAUCGUAUGUACCGAAUCGGCGGGGCGGGGCGGAAAGUAUUAUGUUACGCCGUUCGGAUCUGCACUUCCAG,-0.107
UGCCGUGCCGGGUGGACGGUCUGCUCGCCUGUCUGCGUGACGAAACUGAGGCACAAAGACGCGCUAUGCCAGCGGCGGGUAUAGCAAGGG,-1.11
CUGUGCUACACAUCGUAUGUACCGAAUCGGGGUUUUUUUGGUUUUUUUGGGGUUUUUUUGGGAAAGUAUUAUGUUACGCCGUUCGGAUCU,1.28
GCAGGAAGUAAAAACAAAUGGAAAUGCUUCGGAUAGUGGCAGGGGUGGGGGUUGCUAAGGAAAGGGUGGGAUGGGAGUGGGUAAAAAGUU,-0.279

# Other studies, line by line
Substance,target,assay,test system,setting,scale,measurement,value
"PhoQ, residues 284 288 289 292 302 303 SACGEM","PhoP, residues 12 14 15 18 19 IQFRS (Escherichia coli, UniProt P23836)","Sort-seq, refers to: YFP reporter",E. coli,"PhoQ-PhoP variant library, with: 10 µM Mg2+","baseline: high Mg2+ state, higher = stronger signaling",fold induction,6.21

# For quick reference, copied from above (study 3):
Sequence,log2 enrichment
UGGGAGGUGGAUUUUGUUUAUUUUUGUAGCUCAUUUCCAGGGGUGGGAAUUUUUUUUUAAUAUGUGUCAUGAAUAAAGUUGUUUUUGAAA,0.252
GCAGGAAGUAUAAACAAAUGGAAAUGCUUCGGAUAGUGGCAGGGGUGGGGGUUGCUAAGGAAAGGGUGGGAUGGGAGUGGGUAAAGAGUU,-0.0314
